Experimental data pooled from the literature.
Each line is one published result; not all experiments were run side by side.
CDK14 with cyclin Y: Cyclin-dependent kinase 14, with cyclin Y (CDK14, Homo sapiens, UniProt O94921)
CDK14: Cyclin-dependent kinase 14 (CDK14, Homo sapiens, UniProt O94921)

SMILES | target | test | setting | how to read | quantity | value
CN1CC[C@@H](COc2cnc(C#N)cc2-c2ccn3nc(NC(=O)C4CC4)cc3c2)C1 | CDK14 with cyclin Y | enzyme activity, inhibitor | 1 µM |  | inhibition | -12%
CC(C)=CC1OC(C)(C)C2C=C3C(=O)C(Cl)=CC(O)C3C3C(O)C4OC4C(=O)C132 (stereo not drawn) | CDK14 | cell-free assay, competition with immobilised ligand | 10 µM |  | remaining binding | 95%
C=CC(=O)N1CCc2ccc(-n3c(=O)ccc4cnc5ccc(-c6cnn(C)c6)cc5c43)cc21 | CDK14 | KINOMEscan | 1 µM | reference: DMSO control | remaining binding | 96%
Cc1cnc2nc1Nc1cccc(c1)COC/C=C/COCc1cc(ccc1OCCN1CCOCC1)N2 | CDK14 |  | concentration not given, gene name PFTK1 |  | percent of control | 97%
COc1cc(Nc2nc(C)cc(-c3cnn4nc(OC)ccc34)n2)cc(C(F)(F)F)c1 | CDK14 | inhibitor | 1 µM, PFTK1 | reference: control | remaining activity | 87%
COc1c(Cl)cccc1Nc1c(-c2ccncc2C#C[C@@]2(C)CCCN2C(=O)/C=C/CN(C)C)[nH]c2c1C(=O)NCC2 | CDK14 | binding, competition with immobilised ligand | 3 µM |  | remaining binding | 94%
CNC(=O)C[C@H](Cc1ccc(C#N)cc1)NC(=O)c1cc(-c2ccc(CN[C@H](C)c3ccc(C)cc3)o2)ccc1Cl | CDK14 with cyclin Y | enzyme activity, inhibitor | 1 µM |  | activity vs control | 105%
CNC1C[S+]2CC[S+]3CC[S+](C1)[Ru-4]321([N]=C=S)[n]2c3ccc(OC)cc3c3c4c(c5cc(F)c[n+]1c5c32)C(=O)NC4=O (stereo not drawn) | CDK14 | KinomeScan | 0.1 µM | reference: untreated | remaining binding | 95%
CN1CCN(Cc2ccc(-c3ccc(CO[C@H]4CCC[C@@H]4NC(=O)c4cc(-c5cnn(C)c5)cnc4N)cc3)cc2)CC1 | CDK14 with cyclin Y | enzyme activity, inhibitor | 0.1 µM |  | inhibition | 2%
COc1cc(Nc2nccc(-c3cnn4nc(OC)ccc34)n2)cc(C(F)(F)F)c1 | CDK14 | binding, competition with immobilised ligand | 1 µM |  | remaining binding | 79%
O=C(Cc1ccc(OCc2ccccc2)cc1)NC1(C(=O)O)CCN(C(=O)c2ccc(-c3cccc(Cl)c3)cc2)CC1 | CDK14 with cyclin Y | enzyme activity, inhibitor | 10 µM |  | activity vs control | 102%
CNC(=O)C1CCN(c2cc(C)c(F)cc2NC(=O)c2ccc(-c3cc(O)ccc3C)c(C)c2)CC1 | CDK14 | binding, competition with immobilised ligand | 1 µM |  | remaining binding | 96%
Nc1ncc2c(n1)-c1c([nH]c3ccc(C4=CCOCC4)cc13)CCC2 | CDK14 | binding, competition with immobilised ligand | 1 µM |  | remaining binding | 100%
Cc1ccc(-c2c(/C=C(\C#N)C(=O)NC(C)C)n(CCCO)c3ncnc(N)c23)cc1 | CDK14 | cell-free assay, competition with immobilised ligand | 1 µM |  | remaining binding | 94%
C=CC(=O)N1Cc2nc(-c3cc(-c4cc(Cl)cnc4Cl)c(F)cc3F)n(-c3ccncn3)c2C1 | CDK14 with cyclin Y | cell-free assay, inhibitor | 1 µM |  | inhibition | 0.2%
CCN1CCN(Cc2ccc(C(=O)Nc3ccc(C)c(NCc4cnc5[nH]ccc5c4OC)c3)cc2C(F)(F)F)CC1 | CDK14 | binding, competition with immobilised ligand | 1 µM |  | remaining binding | 98%
C=CC(=O)N1CCCC(n2c(=O)c3ncccc3n(Cc3ccc(Oc4ccccc4)cc3)c2=O)C1 (stereo not drawn) | CDK14 | cell-free assay, competition with immobilised ligand | 1 µM |  | remaining binding | 98%
CCn1cc(C(=O)O)c(=O)c2c(N)c(F)c(NC3CCCCC3)cc21 | CDK14 with cyclin Y | kinase activity | 0.1 µM, together with: ATP at Km |  | inhibition | 10.8%

Repeated from above:
SMILES | target | test | setting | how to read | quantity | value
COc1c(Cl)cccc1Nc1c(-c2ccncc2C#C[C@@]2(C)CCCN2C(=O)/C=C/CN(C)C)[nH]c2c1C(=O)NCC2 | CDK14 | binding, competition with immobilised ligand | 3 µM |  | remaining binding | 94%
CCN1CCN(Cc2ccc(C(=O)Nc3ccc(C)c(NCc4cnc5[nH]ccc5c4OC)c3)cc2C(F)(F)F)CC1 | CDK14 | binding, competition with immobilised ligand | 1 µM |  | remaining binding | 98%
CNC(=O)C[C@H](Cc1ccc(C#N)cc1)NC(=O)c1cc(-c2ccc(CN[C@H](C)c3ccc(C)cc3)o2)ccc1Cl | CDK14 with cyclin Y | enzyme activity, inhibitor | 1 µM |  | activity vs control | 105%
